Assay results from different studies.
Every numbered part comes from another study and shows a few of its results, in no order. Changes are numbered by the printed parent chain.

Study 1
Target: Signal transducer and activator of transcription 1-alpha/beta, full length (STAT1, Homo sapiens, UniProt P42224, residues 1-750)
Sequence of UniProt P42224 (whole entry, looked up): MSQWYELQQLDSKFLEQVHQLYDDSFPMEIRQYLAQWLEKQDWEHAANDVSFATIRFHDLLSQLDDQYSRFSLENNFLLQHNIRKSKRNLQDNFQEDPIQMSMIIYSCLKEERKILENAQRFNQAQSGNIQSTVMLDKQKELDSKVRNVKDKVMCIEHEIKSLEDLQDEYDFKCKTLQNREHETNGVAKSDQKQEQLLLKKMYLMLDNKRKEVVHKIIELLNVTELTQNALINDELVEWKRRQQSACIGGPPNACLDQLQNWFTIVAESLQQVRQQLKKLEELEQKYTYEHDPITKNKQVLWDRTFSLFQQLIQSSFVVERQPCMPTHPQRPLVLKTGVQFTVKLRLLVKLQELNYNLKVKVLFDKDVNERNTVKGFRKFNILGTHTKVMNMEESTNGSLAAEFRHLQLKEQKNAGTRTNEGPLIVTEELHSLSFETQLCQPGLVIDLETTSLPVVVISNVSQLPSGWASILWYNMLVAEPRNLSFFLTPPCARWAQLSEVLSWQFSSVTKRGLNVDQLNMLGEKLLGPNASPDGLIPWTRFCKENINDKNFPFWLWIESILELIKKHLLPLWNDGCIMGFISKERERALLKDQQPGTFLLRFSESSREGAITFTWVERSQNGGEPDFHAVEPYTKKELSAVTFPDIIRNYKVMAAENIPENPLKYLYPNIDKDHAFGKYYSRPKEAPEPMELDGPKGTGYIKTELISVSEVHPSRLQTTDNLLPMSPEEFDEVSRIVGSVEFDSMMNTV
Method: protein-binding microarray
Form: hairpin DNA
Sample: in vitro
Tested at: not given
Notes: whole hairpin DNA, median over replicate spots
Reference: not given
Reading: higher = stronger binding
Constant ends, left off below: GAGGCC … GGCCTCACACTCTTTCCCTACACG
| Strand | median fluorescence [a.u.] |
| --- | --- |
| TATCCCGGAAGCCTCCTGGCTTCCGGGATA | 1930 |
| TTTCCCCGAAGCCTCCTGGCTTCGGGGAAA (5mC at 13 29) | 1070 |
| TTCCCCGGAAGCCTCCTGGCTTCCGGGGAA | 2320 |
| TTTCACGGAAGCCTCCTGGCTTCCGTGAAA (5mC at 10) | 1340 |
| TTTCGCGGAAGCCTCCTGGCTTCCGCGAAA (5mC at 10) | 3030 |
| TTTCCCGGAAGCCTCCTGGCTTCCGGGAAA (5mC at 11) | 12100 |
| GTTCCCGGAAGCCTCCTGGCTTCCGGGAAC | 6450 |
| CATCCCGGAAGCCTCCTGGCTTCCGGGATG (5mC at 7) | 1230 |

Study 2
Target: OGT, full length, His-tagged (human)
Method: phage display, sequencing
Sample: in vitro
Tested at: 1 µg OGT
Notes: single substitutions, 15-mer displayed peptide, unchanged parent 16.7
Reference: input library
Reading: higher = stronger binding
Starting sequence: peptide; NSEYMPQYQIIFAHQ; partner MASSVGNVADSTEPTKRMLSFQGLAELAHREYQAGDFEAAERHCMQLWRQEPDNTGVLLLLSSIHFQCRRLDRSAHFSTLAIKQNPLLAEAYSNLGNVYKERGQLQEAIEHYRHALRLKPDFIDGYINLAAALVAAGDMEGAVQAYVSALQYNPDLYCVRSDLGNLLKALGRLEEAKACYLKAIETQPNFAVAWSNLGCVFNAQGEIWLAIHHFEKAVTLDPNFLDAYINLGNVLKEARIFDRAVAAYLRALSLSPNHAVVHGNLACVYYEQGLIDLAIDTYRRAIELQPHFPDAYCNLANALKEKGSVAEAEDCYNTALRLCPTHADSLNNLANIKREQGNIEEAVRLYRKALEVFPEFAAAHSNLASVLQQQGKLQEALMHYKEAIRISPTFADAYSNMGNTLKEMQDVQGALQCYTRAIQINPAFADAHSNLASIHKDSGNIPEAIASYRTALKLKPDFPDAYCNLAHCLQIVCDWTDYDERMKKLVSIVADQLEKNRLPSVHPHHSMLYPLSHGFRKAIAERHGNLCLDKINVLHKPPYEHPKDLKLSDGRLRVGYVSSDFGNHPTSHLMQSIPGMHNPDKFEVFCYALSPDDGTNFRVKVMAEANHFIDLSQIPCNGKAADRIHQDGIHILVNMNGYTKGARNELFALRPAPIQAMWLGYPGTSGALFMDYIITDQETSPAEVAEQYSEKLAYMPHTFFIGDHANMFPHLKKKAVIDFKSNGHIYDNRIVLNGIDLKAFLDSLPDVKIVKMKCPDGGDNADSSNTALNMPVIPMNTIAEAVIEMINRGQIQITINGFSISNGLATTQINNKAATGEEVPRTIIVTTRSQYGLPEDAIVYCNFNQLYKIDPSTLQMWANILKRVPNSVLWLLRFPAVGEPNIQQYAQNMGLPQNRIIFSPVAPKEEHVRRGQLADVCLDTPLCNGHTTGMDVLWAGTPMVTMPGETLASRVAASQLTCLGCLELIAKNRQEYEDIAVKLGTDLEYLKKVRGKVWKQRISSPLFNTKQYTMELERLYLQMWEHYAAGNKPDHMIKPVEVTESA
| Substitution | fold enrichment |
| --- | --- |
| NSEYMPQMQIIFAHQ [Y8M] | 1.2 fold |
| NSEYMPFYQIIFAHQ [Q7F] | 16.1 fold |
| NSEYEPQYQIIFAHQ [M5E] | 4.93 fold |
| NSEYMPLYQIIFAHQ [Q7L] | 13.6 fold |
| NSETMPQYQIIFAHQ [Y4T] | 1.18 fold |
| NSEYMTQYQIIFAHQ [P6T] | 1.53 fold |
| NVEYMPQYQIIFAHQ [S2V] | 7.18 fold |
| NSMYMPQYQIIFAHQ [E3M] | 14.5 fold |

Study 3
Target: Sal-like protein 4, full length isoform A (SALL4, Homo sapiens, UniProt Q9UJQ4, residues 1-1053)
Sequence of UniProt Q9UJQ4 (whole entry, looked up): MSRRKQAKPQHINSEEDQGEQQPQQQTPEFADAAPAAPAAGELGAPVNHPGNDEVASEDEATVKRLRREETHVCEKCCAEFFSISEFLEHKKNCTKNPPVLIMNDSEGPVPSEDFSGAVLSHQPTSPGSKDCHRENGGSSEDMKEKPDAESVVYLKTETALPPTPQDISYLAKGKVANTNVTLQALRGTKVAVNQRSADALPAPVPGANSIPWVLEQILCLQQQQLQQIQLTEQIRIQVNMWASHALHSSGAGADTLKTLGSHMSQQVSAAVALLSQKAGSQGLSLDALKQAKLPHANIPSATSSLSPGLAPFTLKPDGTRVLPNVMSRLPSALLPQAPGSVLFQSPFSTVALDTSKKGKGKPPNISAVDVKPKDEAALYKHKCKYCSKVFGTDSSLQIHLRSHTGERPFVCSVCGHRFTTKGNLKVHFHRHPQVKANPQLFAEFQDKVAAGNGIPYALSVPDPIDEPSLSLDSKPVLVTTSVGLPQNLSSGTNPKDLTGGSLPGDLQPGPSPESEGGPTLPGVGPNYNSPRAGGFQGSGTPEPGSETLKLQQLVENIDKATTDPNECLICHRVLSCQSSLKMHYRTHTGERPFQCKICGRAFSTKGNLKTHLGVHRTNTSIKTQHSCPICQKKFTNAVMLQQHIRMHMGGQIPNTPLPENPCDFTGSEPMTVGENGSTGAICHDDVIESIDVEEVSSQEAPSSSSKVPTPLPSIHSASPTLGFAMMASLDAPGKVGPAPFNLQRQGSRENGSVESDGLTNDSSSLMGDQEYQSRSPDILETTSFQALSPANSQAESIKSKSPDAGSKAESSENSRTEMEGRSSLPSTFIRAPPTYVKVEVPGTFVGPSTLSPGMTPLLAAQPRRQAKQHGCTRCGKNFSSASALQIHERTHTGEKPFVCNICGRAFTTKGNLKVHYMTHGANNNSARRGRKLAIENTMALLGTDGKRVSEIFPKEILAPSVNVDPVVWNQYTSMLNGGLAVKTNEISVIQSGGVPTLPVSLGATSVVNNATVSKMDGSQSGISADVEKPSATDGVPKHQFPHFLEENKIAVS
Method: universal PBM
Form: double-stranded DNA, one strand shown
Sample: in vitro
Tested at: 600 nM
Notes: 8-mer, flanks averaged, mean of replicates
Reading: higher = stronger binding
| Strand | E-score |
| --- | --- |
| GCGGGTTA | -0.168 |
| CTGGGAGA | -0.202 |
| AGCTGTCC | -0.178 |
| GGTTGTTA | 0.161 |
| ACCAACAG | -0.231 |
| AATCAAAG | 0.0464 |
| ATGAACTA | 0.235 |
| GAAGGTCA | -0.0522 |

Mixed results
Starting sequence: PafA, mature enzyme, eGFP fusion (Elizabethkingia meningoseptica, UniProt Q9KJX5); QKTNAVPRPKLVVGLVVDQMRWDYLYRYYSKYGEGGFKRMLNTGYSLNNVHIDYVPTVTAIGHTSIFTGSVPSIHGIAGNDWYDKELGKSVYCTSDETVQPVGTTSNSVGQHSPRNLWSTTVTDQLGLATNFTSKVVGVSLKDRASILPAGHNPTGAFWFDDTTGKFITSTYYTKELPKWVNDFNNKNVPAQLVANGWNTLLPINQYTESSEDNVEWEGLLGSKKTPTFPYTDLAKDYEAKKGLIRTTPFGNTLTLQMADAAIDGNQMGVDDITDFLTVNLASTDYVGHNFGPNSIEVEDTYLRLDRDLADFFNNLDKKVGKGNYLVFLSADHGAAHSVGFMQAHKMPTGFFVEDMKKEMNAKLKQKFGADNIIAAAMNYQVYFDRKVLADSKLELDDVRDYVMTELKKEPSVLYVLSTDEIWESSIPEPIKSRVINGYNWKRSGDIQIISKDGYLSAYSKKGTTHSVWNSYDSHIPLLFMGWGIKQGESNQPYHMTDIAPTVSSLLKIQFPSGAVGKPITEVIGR
| Substitution | target | assay | system | conditions | scale | quantity | result |
| --- | --- | --- | --- | --- | --- | --- | --- |
| F328G | vanadate, free oxyanion | microfluidic competitive inhibition | in vitro, cell-free expressed | not given, derived from inhibition constants, unchanged parent 676 nM | lower = stronger binding | oxyanion analog dissociation constant | 922 nM |

Excerpt of the above (study 1):
| Strand | median fluorescence [a.u.] |
| --- | --- |
| TTTCCCGGAAGCCTCCTGGCTTCCGGGAAA (5mC at 11) | 12100 |
| GTTCCCGGAAGCCTCCTGGCTTCCGGGAAC | 6450 |
